Measurements of several laboratories.
A part holds a random share of what one study measured.
Chain of UniProt P42336 (whole entry, unmodified, looked up): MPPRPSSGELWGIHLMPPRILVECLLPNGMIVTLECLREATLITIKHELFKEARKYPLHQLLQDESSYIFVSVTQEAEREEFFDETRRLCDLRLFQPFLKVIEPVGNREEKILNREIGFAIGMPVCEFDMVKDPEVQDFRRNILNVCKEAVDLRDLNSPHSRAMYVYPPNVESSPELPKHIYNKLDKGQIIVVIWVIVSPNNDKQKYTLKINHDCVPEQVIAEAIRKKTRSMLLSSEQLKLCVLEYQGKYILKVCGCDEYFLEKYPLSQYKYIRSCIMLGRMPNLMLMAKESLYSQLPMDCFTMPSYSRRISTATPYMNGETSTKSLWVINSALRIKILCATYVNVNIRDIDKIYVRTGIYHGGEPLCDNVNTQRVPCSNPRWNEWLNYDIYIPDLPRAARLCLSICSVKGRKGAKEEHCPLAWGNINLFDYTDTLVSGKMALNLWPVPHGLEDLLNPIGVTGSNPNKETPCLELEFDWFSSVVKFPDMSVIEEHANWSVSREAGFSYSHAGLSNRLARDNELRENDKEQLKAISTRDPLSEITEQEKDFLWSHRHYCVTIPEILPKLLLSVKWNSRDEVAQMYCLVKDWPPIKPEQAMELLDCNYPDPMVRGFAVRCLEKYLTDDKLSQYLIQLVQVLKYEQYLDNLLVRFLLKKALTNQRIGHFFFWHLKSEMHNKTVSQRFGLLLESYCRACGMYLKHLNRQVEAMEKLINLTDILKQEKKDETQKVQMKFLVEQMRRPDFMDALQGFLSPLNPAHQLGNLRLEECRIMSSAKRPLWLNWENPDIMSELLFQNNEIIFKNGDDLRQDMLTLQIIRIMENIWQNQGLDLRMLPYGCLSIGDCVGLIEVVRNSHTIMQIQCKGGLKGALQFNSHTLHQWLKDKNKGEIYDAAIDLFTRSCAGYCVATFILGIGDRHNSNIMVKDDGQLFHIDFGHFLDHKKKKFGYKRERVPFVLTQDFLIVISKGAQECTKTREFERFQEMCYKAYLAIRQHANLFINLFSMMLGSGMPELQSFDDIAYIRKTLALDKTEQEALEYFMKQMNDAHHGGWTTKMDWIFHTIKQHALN
Chain of UniProt Q9P0L2 (whole entry, looked up): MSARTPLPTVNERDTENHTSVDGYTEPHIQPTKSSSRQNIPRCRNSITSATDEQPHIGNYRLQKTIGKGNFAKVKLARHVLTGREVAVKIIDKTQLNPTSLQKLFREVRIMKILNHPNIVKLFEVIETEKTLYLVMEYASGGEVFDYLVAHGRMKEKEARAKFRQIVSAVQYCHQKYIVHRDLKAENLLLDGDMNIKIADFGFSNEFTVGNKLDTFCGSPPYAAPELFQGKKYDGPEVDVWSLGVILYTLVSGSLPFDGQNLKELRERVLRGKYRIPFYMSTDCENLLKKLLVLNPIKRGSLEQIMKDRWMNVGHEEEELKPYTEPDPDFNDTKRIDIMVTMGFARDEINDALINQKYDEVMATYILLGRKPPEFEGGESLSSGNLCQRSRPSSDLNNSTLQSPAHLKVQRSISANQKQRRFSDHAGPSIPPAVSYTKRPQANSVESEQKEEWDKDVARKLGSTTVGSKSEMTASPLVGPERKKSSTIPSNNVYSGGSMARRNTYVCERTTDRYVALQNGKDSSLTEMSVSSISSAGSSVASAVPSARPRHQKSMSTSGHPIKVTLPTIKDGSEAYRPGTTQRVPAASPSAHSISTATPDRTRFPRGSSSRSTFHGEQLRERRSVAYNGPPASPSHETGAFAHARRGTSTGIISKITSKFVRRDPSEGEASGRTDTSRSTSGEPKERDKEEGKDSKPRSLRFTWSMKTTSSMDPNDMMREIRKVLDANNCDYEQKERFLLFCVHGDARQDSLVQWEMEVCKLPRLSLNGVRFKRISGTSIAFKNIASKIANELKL

Series 1
Compound: C[C@@H]1CN(c2ccc(-c3cc(C(=O)NCCOCCOCCOCCOCCNC(=O)Cn4cc(-c5[nH]cc(C(=O)N[C@@H](CC(N)=O)c6ccc(F)c(Cl)c6)c5-c5ccc(Cl)cc5F)cn4)ccc3F)cc2NC(=O)c2c[nH]c(=O)cc2C(F)(F)F)C[C@H](C)N1C
Observed: thermal unfolding
Technique: differential scanning fluorimetry
Tested at: 5.5 µM
Direction: higher = more unfolded
WDR5: WD repeat-containing protein 5 (WDR5, Homo sapiens, UniProt P61964)
DCAF1: DDB1- and CUL4-associated factor 1 (DCAF1, Homo sapiens, UniProt Q9Y4B6)
Chain of UniProt Q9Y4B6 (whole entry, looked up): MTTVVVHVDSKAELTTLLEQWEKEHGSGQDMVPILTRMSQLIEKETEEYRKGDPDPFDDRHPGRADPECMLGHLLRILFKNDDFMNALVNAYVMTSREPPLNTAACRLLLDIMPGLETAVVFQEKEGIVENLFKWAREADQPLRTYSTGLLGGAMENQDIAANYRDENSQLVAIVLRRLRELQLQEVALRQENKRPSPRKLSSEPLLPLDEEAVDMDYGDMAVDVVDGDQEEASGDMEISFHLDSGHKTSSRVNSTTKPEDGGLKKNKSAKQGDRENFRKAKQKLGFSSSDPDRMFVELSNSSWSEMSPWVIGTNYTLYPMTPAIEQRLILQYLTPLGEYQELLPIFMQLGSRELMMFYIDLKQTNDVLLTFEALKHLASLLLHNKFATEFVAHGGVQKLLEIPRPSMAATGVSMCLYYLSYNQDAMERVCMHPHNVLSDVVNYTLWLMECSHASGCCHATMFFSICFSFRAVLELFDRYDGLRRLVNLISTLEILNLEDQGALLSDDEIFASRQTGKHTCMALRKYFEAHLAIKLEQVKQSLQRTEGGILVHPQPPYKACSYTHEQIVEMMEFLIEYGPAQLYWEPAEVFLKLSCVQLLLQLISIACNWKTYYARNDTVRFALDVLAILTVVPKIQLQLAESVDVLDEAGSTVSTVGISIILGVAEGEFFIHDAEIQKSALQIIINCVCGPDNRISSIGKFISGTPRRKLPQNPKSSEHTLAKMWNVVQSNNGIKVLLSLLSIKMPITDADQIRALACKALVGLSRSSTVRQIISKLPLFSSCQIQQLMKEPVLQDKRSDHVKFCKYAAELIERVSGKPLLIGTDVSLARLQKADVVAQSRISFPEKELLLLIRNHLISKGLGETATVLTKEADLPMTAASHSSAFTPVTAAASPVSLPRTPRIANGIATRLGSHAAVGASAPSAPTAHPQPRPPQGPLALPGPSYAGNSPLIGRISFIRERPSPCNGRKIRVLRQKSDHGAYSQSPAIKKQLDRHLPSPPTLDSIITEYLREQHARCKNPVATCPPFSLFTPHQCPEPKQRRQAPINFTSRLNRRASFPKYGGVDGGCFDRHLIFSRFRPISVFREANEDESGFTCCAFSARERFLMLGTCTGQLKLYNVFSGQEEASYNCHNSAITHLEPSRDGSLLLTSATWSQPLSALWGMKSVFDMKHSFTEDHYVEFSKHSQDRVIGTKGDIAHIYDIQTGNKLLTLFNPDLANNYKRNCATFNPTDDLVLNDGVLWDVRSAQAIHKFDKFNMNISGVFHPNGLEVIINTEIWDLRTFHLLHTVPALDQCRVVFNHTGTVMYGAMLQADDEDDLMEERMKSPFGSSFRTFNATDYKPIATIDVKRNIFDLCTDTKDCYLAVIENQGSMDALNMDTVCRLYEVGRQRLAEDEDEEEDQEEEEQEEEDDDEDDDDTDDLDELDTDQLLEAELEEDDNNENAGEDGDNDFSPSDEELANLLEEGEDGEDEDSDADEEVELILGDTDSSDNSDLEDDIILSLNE
target	temperature	SYPRO Orange fluorescence [a.u.]
WDR5	72.41 °C	7890
WDR5	77.61 °C	16200
DCAF1	47.6 °C	13400
WDR5	84.01 °C	36800
DCAF1	39.6 °C	10100
WDR5	65.21 °C	7530
WDR5	46 °C	14300
DCAF1	86.01 °C	38700
WDR5	44.2 °C	14500
WDR5	56.81 °C	12700
DCAF1	90.01 °C	35100

Series 2
Compound: O=C(Nc1ccccc1)Nc1cccc(Oc2ccc3nccn3n2)c1
Tested at: 1 µM
target	observed	technique	remaining binding
Phosphatidylinositol 4,5-bisphosphate 3-kinase catalytic subunit alpha isoform (PIK3CA, Homo sapiens, UniProt P42336, H1047L)	binding		100%
Phosphatidylinositol 4,5-bisphosphate 3-kinase catalytic subunit alpha isoform (PIK3CA, Homo sapiens, UniProt P42336, E545A)	binding		100%
Serine/threonine-protein kinase DCLK1 (DCLK1, Homo sapiens, UniProt O15075)	binding	competition with immobilised ligand	100%
Non-receptor tyrosine-protein kinase TNK1 (TNK1, Homo sapiens, UniProt Q13470)	binding	competition with immobilised ligand	77%
Mitogen-activated protein kinase 13 (MAPK13, Homo sapiens, UniProt O15264)	binding	competition with immobilised ligand	100%
Receptor-interacting serine/threonine-protein kinase 1 (RIPK1, Homo sapiens, UniProt Q13546)	binding		98%
Serine/threonine-protein kinase MARK1 (MARK1, Homo sapiens, UniProt Q9P0L2)	binding		98%
Glycogen synthase kinase-3 alpha (GSK3A, Homo sapiens, UniProt P49840)	binding		50%
Tyrosine-protein kinase Srms (SRMS, Homo sapiens, UniProt Q9H3Y6)		cell-free binding	100%
Tyrosine-protein kinase Fyn (FYN, Homo sapiens, UniProt P06241)	binding	competition with immobilised ligand	100%
Mast/stem cell growth factor receptor Kit (KIT, Homo sapiens, UniProt P10721, L576P)	binding		0%
Dual specificity protein kinase CLK4 (CLK4, Homo sapiens, UniProt Q9HAZ1)	binding		100%
Mitogen-activated protein kinase 14 (MAPK14, Homo sapiens, UniProt Q16539)	binding	competition with immobilised ligand	100%
Epidermal growth factor receptor (EGFR, Homo sapiens, UniProt P00533, G719S)	binding		31%
Tyrosine-protein kinase BTK (BTK, Homo sapiens, UniProt Q06187)	binding	competition with immobilised ligand	100%

Series 3
Target: Cyclin-dependent kinase 12, with cyclin K (CDK12, Homo sapiens, UniProt Q9NYV4)
Chain of UniProt Q9NYV4 (whole entry, looked up): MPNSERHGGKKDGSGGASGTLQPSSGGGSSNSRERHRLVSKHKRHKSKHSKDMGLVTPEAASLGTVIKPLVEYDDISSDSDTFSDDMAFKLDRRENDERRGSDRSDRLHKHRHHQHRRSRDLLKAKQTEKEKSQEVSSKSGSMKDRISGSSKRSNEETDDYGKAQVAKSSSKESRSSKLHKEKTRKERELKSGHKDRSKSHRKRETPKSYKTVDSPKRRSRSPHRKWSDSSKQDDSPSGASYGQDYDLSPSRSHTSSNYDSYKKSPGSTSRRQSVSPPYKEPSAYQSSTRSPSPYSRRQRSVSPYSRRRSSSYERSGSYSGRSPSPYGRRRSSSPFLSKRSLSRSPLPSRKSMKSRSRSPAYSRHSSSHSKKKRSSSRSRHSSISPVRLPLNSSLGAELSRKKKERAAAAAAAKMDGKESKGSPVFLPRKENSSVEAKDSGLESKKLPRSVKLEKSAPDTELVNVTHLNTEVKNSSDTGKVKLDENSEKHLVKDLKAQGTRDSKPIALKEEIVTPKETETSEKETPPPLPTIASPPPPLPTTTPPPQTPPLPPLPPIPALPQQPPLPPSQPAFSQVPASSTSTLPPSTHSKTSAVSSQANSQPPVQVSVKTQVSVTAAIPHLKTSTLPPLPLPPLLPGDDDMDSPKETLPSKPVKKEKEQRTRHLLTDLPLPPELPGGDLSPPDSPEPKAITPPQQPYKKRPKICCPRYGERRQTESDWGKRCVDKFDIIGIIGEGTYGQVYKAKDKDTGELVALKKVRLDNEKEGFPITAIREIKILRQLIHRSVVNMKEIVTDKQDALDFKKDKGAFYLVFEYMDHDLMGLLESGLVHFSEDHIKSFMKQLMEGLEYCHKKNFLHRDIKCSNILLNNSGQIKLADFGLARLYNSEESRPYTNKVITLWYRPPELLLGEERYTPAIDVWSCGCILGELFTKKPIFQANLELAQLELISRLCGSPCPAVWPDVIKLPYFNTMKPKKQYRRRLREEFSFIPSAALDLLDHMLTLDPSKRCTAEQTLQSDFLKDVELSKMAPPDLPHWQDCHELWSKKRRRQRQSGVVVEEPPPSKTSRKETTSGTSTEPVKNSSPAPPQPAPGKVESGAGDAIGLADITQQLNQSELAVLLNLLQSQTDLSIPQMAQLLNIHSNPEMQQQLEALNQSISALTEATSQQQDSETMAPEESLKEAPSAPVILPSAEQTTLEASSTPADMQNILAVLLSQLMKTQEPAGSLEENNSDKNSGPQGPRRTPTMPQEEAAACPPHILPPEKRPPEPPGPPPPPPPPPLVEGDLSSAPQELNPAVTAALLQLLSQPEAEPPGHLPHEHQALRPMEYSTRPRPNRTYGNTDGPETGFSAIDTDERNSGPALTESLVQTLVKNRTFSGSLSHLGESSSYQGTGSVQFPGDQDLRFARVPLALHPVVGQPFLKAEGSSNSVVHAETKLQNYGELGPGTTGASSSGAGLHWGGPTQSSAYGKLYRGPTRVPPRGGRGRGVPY
Observed: kinase activity
Mode: inhibitor
Technique: ADP-Glo
Tested at: 0.0082 µM
Structure (SMILES)	inhibition [%]
Cn1cc(-n2cnc3c(NCc4nc5cc(Cl)c(Cl)cc5[nH]4)nc(N4CCNCC4)nc32)cn1	-3.2
CCn1cnc2c(NCc3nc4cc(F)c(F)cc4[nH]3)nc(N3CCn4ncnc4C3)nc21	10.1
CCn1cnc2c(NCc3nc4ccc(F)c(F)c4[nH]3)nc(N3CCn4ncnc4C3)nc21	6.6
CCn1cnc2c(NCc3nc4cc(Cl)c(Cl)cc4[nH]3)nc(N3CCN(C(=O)c4ccncc4)CC3)nc21	3.7
CC(=O)N1CCN(c2nc(NCc3nc4cc(Cl)c(Cl)cc4[nH]3)c3ncn(C)c3n2)CC1	-2.3
CCCCOc1nc(NCc2nc3cc(Cl)c(Cl)cc3[nH]2)c2ncn(CC)c2n1	8.4
CCn1cnc2c(NCc3nc4cc(Cl)c(Cl)cc4[nH]3)nc(N3CCn4ncnc4C3)nc21	22
CCn1cnc2c(NCc3nc4cc(Cl)c(Cl)cc4[nH]3)nc(N3CCN(C(=O)CNC(C)=O)CC3)nc21	4.8
CCn1cnc2c(NCc3nc4cc(Cl)c(Cl)cc4[nH]3)nc(N3CCN(S(C)(=O)=O)CC3)nc21	0
CC(=O)N1CCN(c2nc(NCc3nc4cc(Cl)c(Cl)cc4[nH]3)c3ncn(-c4cnn(C)c4)c3n2)CC1	-1.9

Series 4
Structure (SMILES): CC[C@@]1(c2ccccc2)C2=C(CC(C)(C)CC2=O)Nc2n[nH]cc21
Tested at: 1 µM
target	observed	technique	reference	remaining binding [%]
Serine/threonine-protein kinase ULK1 (ULK1, Homo sapiens, UniProt O75385)	kinase binding	KINOMEscan	DMSO control	100
Beta-adrenergic receptor kinase 1 (GRK2, Homo sapiens, UniProt P25098)	binding	competition with immobilised ligand		100
Receptor-type tyrosine-protein kinase FLT3 (FLT3, Homo sapiens, UniProt P36888, K663Q)	kinase binding	KINOMEscan	DMSO control	80
Tyrosine-protein kinase HCK (HCK, Homo sapiens, UniProt P08631)	kinase binding	KINOMEscan	DMSO control	100
ALK tyrosine kinase receptor (ALK, Homo sapiens, UniProt Q9UM73, C1156Y)	binding	competition with immobilised ligand		88
Serine/threonine-protein kinase 35 (STK35, Homo sapiens, UniProt Q8TDR2)	kinase binding	KINOMEscan	DMSO control	98
Serine/threonine-protein kinase MARK2 (MARK2, Homo sapiens, UniProt Q7KZI7)	kinase binding	KINOMEscan	DMSO control	67
Ribosomal protein S6 kinase alpha-4, C-terminal kinase domain (RPS6KA4, Homo sapiens, UniProt O75676)	kinase binding	KINOMEscan	DMSO control	100
Serine/threonine-protein kinase PLK2 (PLK2, Homo sapiens, UniProt Q9NYY3)	binding	competition with immobilised ligand		85
Mitogen-activated protein kinase kinase kinase 4 (MAP3K4, Homo sapiens, UniProt Q9Y6R4)	kinase binding	KINOMEscan	DMSO control	100
Serine/threonine-protein kinase D3 (PRKD3, Homo sapiens, UniProt O94806)	kinase binding	KINOMEscan	DMSO control	95
Macrophage colony-stimulating factor 1 receptor (CSF1R, Homo sapiens, UniProt P07333)	kinase binding	KINOMEscan	DMSO control	100
SRSF protein kinase 1 (SRPK1, Homo sapiens, UniProt Q96SB4)	binding	competition with immobilised ligand		95
Wee1-like protein kinase (WEE1, Homo sapiens, UniProt P30291)	binding	competition with immobilised ligand		100
Cyclin-dependent kinase 9 (CDK9, Homo sapiens, UniProt P50750)	kinase binding	KINOMEscan	DMSO control	100
Mitogen-activated protein kinase kinase kinase 5 (MAP3K5, Homo sapiens, UniProt Q99683)	binding	competition with immobilised ligand		100
Serine/threonine-protein kinase D2 (PRKD2, Homo sapiens, UniProt Q9BZL6)	binding	competition with immobilised ligand		76
Serine/threonine-protein kinase MRCK gamma (CDC42BPG, Homo sapiens, UniProt Q6DT37)		KINOMEscan		94
Serine/threonine-protein kinase 38-like (STK38L, Homo sapiens, UniProt Q9Y2H1)	kinase binding	KINOMEscan	DMSO control	90
SRSF protein kinase 2 (SRPK2, Homo sapiens, UniProt P78362)	binding	competition with immobilised ligand		95
Cyclin-dependent kinase 2 homolog (CRK2, Plasmodium falciparum, UniProt P61075)	kinase binding	KINOMEscan	DMSO control	100
Serine/threonine-protein kinase PAK 4 (PAK4, Homo sapiens, UniProt O96013)	kinase binding	KINOMEscan	DMSO control	100
Myosin-IIIa (MYO3A, Homo sapiens, UniProt Q8NEV4)	binding	competition with immobilised ligand		100
Non-receptor tyrosine-protein kinase TYK2, JH2 pseudokinase domain (TYK2, Homo sapiens, UniProt P29597)	kinase binding	KINOMEscan	DMSO control	100

A few entries again (series 4):
target	observed	technique	reference	remaining binding [%]
Serine/threonine-protein kinase MARK2 (MARK2, Homo sapiens, UniProt Q7KZI7)	kinase binding	KINOMEscan	DMSO control	67
Ribosomal protein S6 kinase alpha-4, C-terminal kinase domain (RPS6KA4, Homo sapiens, UniProt O75676)	kinase binding	KINOMEscan	DMSO control	100
Serine/threonine-protein kinase PLK2 (PLK2, Homo sapiens, UniProt Q9NYY3)	binding	competition with immobilised ligand		85
